# Results collected from several papers.
# A part holds a random share of what one study measured.

# Study 1
# Target: Histone acetyltransferase KAT6A, both winged helices, GST fusion (KAT6A, Homo sapiens, UniProt Q92794, residues 1-181)
# Method: protein binding microarray
# Form: double-stranded DNA, one strand shown
# Medium: in vitro
# Tested at: not given
# Notes: 8-mer, flanks averaged, mean of 2 arrays, mostly near background
# Reference: not given
# Direction: higher = stronger binding
# Construct (chain): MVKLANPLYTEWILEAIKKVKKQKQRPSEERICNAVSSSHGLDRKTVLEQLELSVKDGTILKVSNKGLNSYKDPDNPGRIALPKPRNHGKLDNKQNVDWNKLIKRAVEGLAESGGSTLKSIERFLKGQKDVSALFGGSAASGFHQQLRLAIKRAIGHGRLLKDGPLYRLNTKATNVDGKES
Strand,E-score
ACTGCTTA,-0.253
ATTCAAAA,0.0786
CAGAACCG,0.0389
ACGTCTGC,0.083

# Study 2
# Target: Max-binding protein MNT, bHLH-zipper, MAX partner unstated (MNT, Homo sapiens, UniProt Q99583, residues 220-300)
# Method: protein-binding microarray
# Form: double-stranded DNA, one strand shown
# Medium: in vitro
# Tested at: not given
# Notes: k-mer, scored over probes, only values ≥0.25
# Direction: higher = stronger binding
# Residues (chain): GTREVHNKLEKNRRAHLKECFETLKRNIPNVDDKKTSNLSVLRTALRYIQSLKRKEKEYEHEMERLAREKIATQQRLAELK
Strand,E-score
ACGCACAC,0.306
GTGCGTGA,0.301
AGCACGCA,0.352
ACTCGTGA,0.316
ACATGACT,0.271
ACATGCCG,0.358
CACGGGGA,0.332

# Study 3
# Target: Interferon regulatory factor 7, full length, phosphomimetic (IRF7, Homo sapiens, UniProt Q92985, residues 1-503, S101K/S471D/S472D/S475D/S476D/S477D/S483D/S484D/S487D)
# Sequence of UniProt Q92985 (whole entry, unmodified, looked up): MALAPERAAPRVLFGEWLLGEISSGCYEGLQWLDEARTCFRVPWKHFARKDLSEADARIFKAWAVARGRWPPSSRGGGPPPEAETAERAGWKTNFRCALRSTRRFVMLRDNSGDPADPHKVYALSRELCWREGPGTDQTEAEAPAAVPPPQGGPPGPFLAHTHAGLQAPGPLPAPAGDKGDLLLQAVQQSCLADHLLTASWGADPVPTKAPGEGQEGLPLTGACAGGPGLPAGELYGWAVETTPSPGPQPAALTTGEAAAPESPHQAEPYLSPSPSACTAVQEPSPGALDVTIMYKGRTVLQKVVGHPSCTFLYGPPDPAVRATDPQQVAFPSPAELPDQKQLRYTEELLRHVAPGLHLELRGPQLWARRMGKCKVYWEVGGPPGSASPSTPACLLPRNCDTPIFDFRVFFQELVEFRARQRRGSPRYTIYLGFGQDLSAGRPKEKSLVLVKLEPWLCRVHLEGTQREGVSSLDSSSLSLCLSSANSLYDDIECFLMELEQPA
# Method: protein-binding microarray
# Form: double-stranded DNA, one strand shown
# Medium: in vitro
# Tested at: 250 nM
# Notes: 60-bp whole probe
# Added: salmon DNA 0.4 mg/ml
# Reference: random background probes
# Direction: higher = stronger binding
Strand,log fluorescence
GCCTAGCACTTTTATATCTTATCCTATCAGTGCTAGGTCTTGATTCGCTTGACGCTGCTG,1.01 z-score
GCCTAGCACTAAGGTTTCGGTTTCGGTTAGTGCTAGGTCTTGATTCGCTTGACGCTGCTG,15.3 z-score
GCCTAGCACTTACGACTGGGTATCGGTTAGTGCTAGGTCTTGATTCGCTTGACGCTGCTG,0.426 z-score
GCCTAGCACCACGGTTTCGGTTCCGGGACGTGCTAGGTCTTGATTCGCTTGACGCTGCTG,12.6 z-score

# Single results of other studies
Molecule,target,assay,system,conditions,how to read,quantity,result
"PhoQ, residues 284 288 289 292 302 303 TASMAF","PhoP, residues 12 14 15 18 19 IFFTR (Escherichia coli, UniProt P23836)","Sort-seq, measured: YFP reporter",E. coli,"PhoQ-PhoP variant library, added: 10 µM Mg2+","reference: high Mg2+ state, higher = stronger signaling",fold induction,18.6
